Measured values collected from several papers.
Parts stem from different laboratories: compare values within a part only.

Set 1
Target: Histone acetyltransferase KAT6A, winged helix 2, GST fusion (KAT6A, Homo sapiens, UniProt Q92794, residues 85-181)
Technique: protein binding microarray
Form: double-stranded DNA, one strand shown
Matrix: in vitro
Tested at: not given
Setting: 8-mer, flanks averaged, mean of 2 arrays, mostly near background
Relative to: not given
Reading: higher = stronger binding
Residues (chain): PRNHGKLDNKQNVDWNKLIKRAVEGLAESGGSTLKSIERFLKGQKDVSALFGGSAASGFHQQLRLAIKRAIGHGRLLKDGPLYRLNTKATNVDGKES
Sequence	E-score
CGTGCCGC	0.0671
CTACGCTC	-0.116
GGAGACTA	-0.0892
CTCCAATC	-0.108
GCGACAAC	0.161
ATGTGTCC	-0.042
ACCAGAAC	0.046
GGTACGAC	-0.11
CACGTGGA	-0.0283
GGAGGGCC	0.0692
ACCAATCA	-0.24
ACTATAAG	-0.135
AATCGACT	-0.255
GATCTAAC	-0.0121
AGTTGAAG	-0.106
CGTACAAC	-0.105
CGAGGACG	0.202
CTACATGC	0.0383
AGCCGCCC	0.147
GACAGCCA	0.117
CGCTGCGC	0.235
CATACTGA	-0.0617
CCGCGCCA	0.169
CCTTAACC	-0.136

Set 2
Target: RNA binding protein fox-1 homolog 2, RRM domain, GST-SBP tag (RBFOX2, Homo sapiens, UniProt O43251-10, residues 100-194)
Technique: RNA Bind-n-Seq
Form: RNA
Matrix: in vitro
Tested at: 365 nM
Setting: natural RNA segment, single round, ends assumed
Relative to: no-protein control
Reading: higher = stronger binding
All sequences stand within: GGGAGUUCUACAGUCCGACGAUC … UGGAAUUCUCGGGUGCCAA
Target sequence (chain): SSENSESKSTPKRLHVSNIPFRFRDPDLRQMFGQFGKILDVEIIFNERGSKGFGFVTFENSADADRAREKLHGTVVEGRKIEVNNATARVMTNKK
Sequence	RBNS enrichment (R)
UGCAAGAAGAAUCUGGGCUGAGCUGCUUCAAACAAGGAGGCUUUGCUCUGGAGUGAGGAGGGAGUGACCCCUCAGCCUGUGUAGGGUCCAGUUUUAUGCUCUCGGAAGGC	0.489
UUUUAACUUUCUCCCUCUAUGACACAAAUGAAUUGAGGGUAGGAGGAGGGUGCACAUAACCCUUACCCUACCUCUGCCAAAAAGUGGGGGCUGUACUGGGGACUGCUCGG	0.606
CCAACACUACUGGCUCUUGCUUUUCUCAAUCCCCAAAGCUUCCCUUGUGACUUCUUAAGGCUCUGUAUGAAUUUGGAAGUAUAUGUUGAUAUUGCCAUGCAUGGUCAUUC	4.73
GUAUAGGGAGAUGGAUUAAGUUGAUAAUGACAUUUAGGGCAACUUAAGACCUUUGAUCCCAGGUUCUAACUCAAAGAGGCUGACCUUCCCCCAGCUAAGAUAGCAUGAGG	8.06
GCAAUUUUUAAUGAGGUUACUGAAUUGUUUAGUAUUCCUAAUAUGGCAUCCAGGUCAUCUUUUCUUUUCUCCAACCAUUAUUAAAAUAACUUGACACUUUGGGAGGCCAA	0.57
CCAUGUUUGCUCUAAAUUAAGACAGCAUUGAUCUCCUGGAGGCUGGUUCUGCUGCCUCUACACAGGGGCCCUGUACAGUGAAUGGUGCCAUUUUCGAAGGAGCAGUGUGA	0.474
AUAACCAUUUCCUUCUUGUCACUGAAAUAUAUGGACCUGAAUUUGUAUCCUGACUGAUUCAACCCAGCCGAGCAUAAAUUGACUUGAGCGCCUUACCUUUGAUGUCUGAA	0.593
UAUGAGAUUACCUUAUUUUUAUAUAUGACAAACUACUUCUAUAAUGCUUAUUAUGGUAAAAUAAAAUUGGAAAAAAUUAAAACUGACCUAUAAGAGUGUUAAGGACCUAA	0.341
UCUUACAAAACCACUUCCUCCCCACCCGCUUGCUGCCAAGGGGCGGGUUGCGGUGCAUGAAACCGCUGGGUCCUGGCUGUCACUCCUGUUGGGGGUCUGAAGGUGGCUGG	2.33
GGGAAGGUGACCUGGCCAGAGCCAAGAAACACUUUCAGAAAAACAAAUGUGAAGGGGAGAGACAGGGGCCGCCCUUGGCUCCUGUCCCUGCUGCUCCUCUAGGCCUCACU	0.213
GCAGAGCAGGAGGGGGCCUGUGCUUCUCGGGGUCUGCACCCCAGGCACAGCGGUGUCACCCCGCAGGACCGCGGGCCUGCCCCAACCCCCAGCAUUCCCGGGUGGGCCCA	0.696
CUUCAGAGGCCCUCGCUGCCAGCUCUGUAUCAGGACCCAGAGGAAGGGGCCAGAGGCUCGUUGACUGGCUGUGUGUUGGGAUUGAGUCUGUGCCACGUGUUUGUGCUGUG	5.81

Set 3
Target: Hepatocyte nuclear factor 3-alpha (Foxa1, Mus musculus, UniProt P35582, residues 1-468, full length assumed)
Technique: EMSA with sequencing
Form: double-stranded DNA, one strand shown
Matrix: in vitro
Tested at: 10 and 20 nM
Setting: whole designed probe, mean of two concentrations, ends assumed
Relative to: negative control set to 0
Reading: higher = stronger binding
All sequences stand within: GTGAGCGGTGCCCATTGATGGGGAAC … TTTCACTGGGATCGTGGGGAC
Target sequence (chain): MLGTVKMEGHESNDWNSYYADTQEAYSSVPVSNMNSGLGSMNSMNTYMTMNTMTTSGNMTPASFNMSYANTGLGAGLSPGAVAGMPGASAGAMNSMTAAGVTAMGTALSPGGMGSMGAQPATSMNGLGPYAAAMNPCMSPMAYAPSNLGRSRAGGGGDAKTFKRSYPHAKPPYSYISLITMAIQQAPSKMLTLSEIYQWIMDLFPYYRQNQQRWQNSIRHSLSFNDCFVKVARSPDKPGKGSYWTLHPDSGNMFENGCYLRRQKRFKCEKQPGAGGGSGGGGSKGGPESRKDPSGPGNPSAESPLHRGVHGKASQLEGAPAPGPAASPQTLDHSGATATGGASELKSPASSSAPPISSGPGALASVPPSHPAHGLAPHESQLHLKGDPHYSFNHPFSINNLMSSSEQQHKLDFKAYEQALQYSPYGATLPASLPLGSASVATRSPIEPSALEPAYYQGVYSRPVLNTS
Sequence	normalised bound fraction [ratio]
ATGAAGGGCTGCCAGTGTAATTTGAACCTCAAATAAACAACAGATAAAACTGTAGTATAAGTATGTCCCATATATTGCACAACACGATCTTTTAGATTGCCTAATCTGGCAAAGAAAATGACTTAACACACACTAATCTGTTGACAGGTAGGTGAAATATTTGAACTTCTACGTTGCTTCTCTAATCCTGTCC	0.133
GTCCCCTTGTGCGTAGATGGTGGCAAATGATTGTTTGCCAAGCCTTCTACCTCCTCCCTTTCTGTGTTCCATTGAGATCATGGAAATGCAAAGTAATTTGCCATGGAGTAAAATGCCTCCGAGAGTATTTATTTAAGAGTATTGTTCCAGGATATGCACGAAGATAAAGACTTTATGTAATGAATGAGTGACT	0.345
CACACACACACACACACCCCACACACGCACTACGAGAAGGGGAGTTTGATCTTGTCTCATTGGCGTCTCGGGTCTGAAAGGAAAATCGTTTGGGTAATCTGCCAAGCTTCCAGGCTTAACGCCCGGCTCCCGCCCCCGCCCCTCCATCCCCTCCTGCCTCCCCCACTCGCCTTCAACCCCACCCGCCACCCAC	-0.0207
GTGAATGTTGGATTCATGGATTGGGTATGACTACTCTGGGTCTGCCACCCCCAGAAAGTTTAGCACAAGTCACAGAGCAGCGTCAGGAAGCCCTTGTTTACATTTCACACACCCTTTAGGCCCTTCTCCCAGCCAGCCTGATACCAGATTCACAGAGTTCACAAACTGTGAACTCTCTCTACCTAGTTGCTGT	0.421
ATCTTCCCCCTCTTCCTTGCCCCACCAGCTCACCTACGGGGGTTATTTGCACAAAGGAAAATAAATAAAGCCGGCATTCGTTAACGCAGTTCTGGCGCAAACTGCTGTTTGCTCTGCATGAATCATGGTCCTTACGCGAGGCGTGGCTCCGGGAGAGCAAAGCACCGTGTCAGGCGCATGATCCGGGCTCGCC	0.391
ATCTTCCCCCTCTTCCTTGCCCCACCAGCTCACCTTCCCGGGTTATTTGCAGATAGGAAAATAAATAAAGCCGGCATTCGTTAACCCTCTTCTGGCGCAAACTGCTGTTTGCTCTGGATGAATCATGGATGCGGCCGTGCCCCATTGTCCGGGAGAGCAAAGCACCGTGTCAGGGCCATGATCCGGGGTGGCC	0.352
TGCTCTTGATTCAAATGCATGCTGAGCTTTCCCTGATCAGCTTGTTCCTTTGGGCGATATCACAATTTCATCTTGTTCAAGCTGTCTACATTCCTGTTTACTTAGGTTTGCAAATAGAACTTTAGCACTCAAATTAGTACTGACAGAACAACCTGCAAGTATTCTAAATCCTCATTTGCCTTCATTCCAAGGG	0.364
ATCTTCCCCCTCTTCCTTGCCCCACCAGCTCACCTACGGGGGTTATTTGCAGATAGGAAAATAAATAAAGCCGGCATTCGTTAACCCTCTTCACGCGCATACTGCTGTTTGCTCTGCATGAATCATGGTCCTTACGCGACGCCAGGCTCCGGGAGAGCAAAGCACCGTGTCAGGCGCATGATCCGGGCTCGCC	0.347

Set 4
Target: Sal-like protein 4, full length isoform B (SALL4, Homo sapiens, UniProt Q9UJQ4-2, residues 1-616)
Technique: universal PBM
Form: double-stranded DNA, one strand shown
Matrix: in vitro
Tested at: not given
Setting: 8-mer, flanks averaged, mean of replicates
Reading: higher = stronger binding
Residues (chain): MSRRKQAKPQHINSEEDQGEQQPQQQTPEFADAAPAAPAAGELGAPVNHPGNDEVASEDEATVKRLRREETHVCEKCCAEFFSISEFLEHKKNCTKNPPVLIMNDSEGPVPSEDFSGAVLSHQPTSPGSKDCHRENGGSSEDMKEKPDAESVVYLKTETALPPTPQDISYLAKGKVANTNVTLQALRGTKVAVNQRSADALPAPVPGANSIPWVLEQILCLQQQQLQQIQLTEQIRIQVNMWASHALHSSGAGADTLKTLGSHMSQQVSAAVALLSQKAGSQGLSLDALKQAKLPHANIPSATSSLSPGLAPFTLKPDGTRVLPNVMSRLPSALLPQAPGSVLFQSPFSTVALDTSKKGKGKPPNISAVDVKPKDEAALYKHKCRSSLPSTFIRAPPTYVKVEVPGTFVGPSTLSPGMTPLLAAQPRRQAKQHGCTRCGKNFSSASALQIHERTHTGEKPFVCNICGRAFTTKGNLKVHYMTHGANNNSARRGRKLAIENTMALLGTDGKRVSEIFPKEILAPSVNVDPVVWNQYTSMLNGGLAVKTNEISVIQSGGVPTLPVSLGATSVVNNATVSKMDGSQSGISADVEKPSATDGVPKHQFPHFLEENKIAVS
Sequence	E-score
TAGTTAAA	0.243
GGGCGACA	-0.257
GGCTCCAA	-0.179
AGGTCCAG	-0.177
CCGAGCGA	-0.257
AGGGAGCG	-0.232
GTAGTCTA	0.136
GTTACTGA	0.0777
GAGAGTAA	0.0451
CCCGCCTA	-0.0135
GCACATGC	-0.146
CGGTATCA	-0.0143
TGAACTAA	0.119
CGCAAGGA	-0.196
CAGTCTCA	-0.0101
ATTTATTA	0.438
CACAGAAC	-0.0357
ATGCAACG	0.0265
ACACTAGT	0.107
CCCTAGTC	-0.153
ACCATGAG	-0.0122
GAAACATA	0.245
GAGGATGC	-0.259
CCTCTTCA	0.103
ACTAGTGG	-0.0445

Excerpt of the above (set 2):
Sequence	RBNS enrichment (R)
CCAUGUUUGCUCUAAAUUAAGACAGCAUUGAUCUCCUGGAGGCUGGUUCUGCUGCCUCUACACAGGGGCCCUGUACAGUGAAUGGUGCCAUUUUCGAAGGAGCAGUGUGA	0.474
UCUUACAAAACCACUUCCUCCCCACCCGCUUGCUGCCAAGGGGCGGGUUGCGGUGCAUGAAACCGCUGGGUCCUGGCUGUCACUCCUGUUGGGGGUCUGAAGGUGGCUGG	2.33
GUAUAGGGAGAUGGAUUAAGUUGAUAAUGACAUUUAGGGCAACUUAAGACCUUUGAUCCCAGGUUCUAACUCAAAGAGGCUGACCUUCCCCCAGCUAAGAUAGCAUGAGG	8.06
GCAAUUUUUAAUGAGGUUACUGAAUUGUUUAGUAUUCCUAAUAUGGCAUCCAGGUCAUCUUUUCUUUUCUCCAACCAUUAUUAAAAUAACUUGACACUUUGGGAGGCCAA	0.57
GGGAAGGUGACCUGGCCAGAGCCAAGAAACACUUUCAGAAAAACAAAUGUGAAGGGGAGAGACAGGGGCCGCCCUUGGCUCCUGUCCCUGCUGCUCCUCUAGGCCUCACU	0.213
